Results collected from several papers.
Lines come from different studies, so protocols differ. Numbers after ± are the reported error.
Cell line: Vero

The CC50 of `COc1ccc(Nc2c(C#N)cnc3ccc(Cl)cc23)cc1` is reported as over 100 µM (resazurin; 72 h, 10% FBS, with: 30 µM heme).
The CC50 of `CCOC(=O)C(CC)NC(=O)CN1C(=O)S/C(=C\c2ccc(C)cc2)C1=O` (stereo not shown) is reported as over 100 µM (cell growth or viability, resazurin; 72 h).
`COc1ccc(-n2nc3c(=O)n(Cc4cccc(NC(=O)c5ccccc5)c4)nc(C)c3c2C)cc1` gave a CC50 of over 1000 µM (cell growth or viability).
`CC(C)NC(=O)CNC(=O)C=CC(Cc1ccccc1)Nc1ccnc2cc(Cl)ccc12` (stereo not shown) has a CC50 of 44.9 µM (cell growth or viability, MTT; 48 h).
With `CCCCCCCCC1=C(CCCCCCC(=O)OC)C1` the CC50 was over 1000 µM (cell growth or viability, MTS; 24 h).
With `O=c1nc(N2CCC(Oc3ccccc3Cl)CC2)sc2c([N+](=O)[O-])cc(C(F)(F)F)cc12` the CC50 was over 10 µM (cell growth or viability).
For `CCOC(=O)C(CC)NC(=O)CN1C(=O)S/C(=C\c2ccc(OC)cc2)C1=O` (stereo not shown), the CC50 was over 100 µM (cell growth or viability, resazurin; 72 h).
With `O=c1c(O)cccc(SCc2ccccc2)c1O` the CC50 was over 100 µM (cell growth or viability, MTS; 24 h).
For `CCOC(=O)C(C)NC(=O)CN1C(=O)N/C(=C\c2ccc(C)cc2)C1=O` (stereo not shown), the CC50 was over 100 µM (cell growth or viability, resazurin; 72 h).
`Oc1cc(O)cc(Oc2c(O)cc(O)c3c2Oc2c(O)cc(Oc4c(O)cc(O)cc4O)cc2O3)c1` gave a CC50 of 446 µM (cell growth or viability, MTT; 72 h).
With `Cc1nn(-c2cccc(C(=O)NC(C)C)c2)c(=O)c2nn(-c3ccccc3)c(C)c12` the CC50 was 436 µM (cell growth or viability).
`CCN(CC)CCNC(=O)C=CC(Cc1ccccc1)Nc1ccnc2cc(Cl)ccc12` (stereo not shown) has a CC50 of 45 µM (cell growth or viability, MTT; 48 h).
`CC(C)c1cc2c(cc1[N+](=O)[O-])[C@@]1(C)CCC[C@@](C)(CNC(=O)c3ccccc3)[C@@H]1CC2` has a CC50 of 2.56 µM (cell growth or viability, MTT; 96 h).
With `CN(C)CCNC(=O)/C=C/[C@H](Cc1ccccc1)Nc1ccnc2cc(Cl)ccc12` the CC50 was 48.8 µM (cell growth or viability, MTS; 48 h).
`CCCCCCSc1cccc(O)c(=O)c1O` gave a CC50 of over 100 µM (cell growth or viability, MTS; 24 h).
For `Cc1cc(NCCOC(C)C)c2nc(N3CCOC[C@H]3C)cc(=O)n2c1`, the CC50 was 196 µM (cell growth or viability, CCK-8; 48 h).
The CC50 of `COc1ccc(-n2nc3c(=O)[nH]nc(C)c3c2C)cc1` is reported as 115 µM (cell growth or viability).
The CC50 of `O=c1c(O)c(SCc2ccccc2)ccc(SCc2ccccc2)c1O` is reported as over 100 µM (cell growth or viability, MTS; 24 h).
`O=c1c(-c2nc3ccccc3s2)cc2c(n1NS(=O)(=O)c1ccc(Cl)cc1)CCCCCC2` has a CC50 of 320 µg/mL (cell growth or viability, trypan blue).
`CCCCCCCCC1=C(CCCCCCCCC(=O)OC)C1` gave a CC50 of over 1000 µM (cell growth or viability, MTS; 24 h).
`O=c1nc(N2CCC(Oc3c(F)cccc3F)CC2)sc2c([N+](=O)[O-])cc(C(F)(F)F)cc12` has a CC50 of over 10 µM (cell growth or viability).
`CNC(C)C(=O)NC(C(=O)N1CCC2Oc3ccc(OC)c(c3)C=CNC(=O)C(C(C)C)NC(=O)C21)C(C)C` (stereo not shown) has a CC50 of over 400 µM (cell growth or viability, MTT; 48 h).
For `O=C(C=CC(Cc1ccccc1)Nc1ccnc2cc(Cl)ccc12)NCCN1CCOCC1` (stereo not shown), the CC50 was 149 µM (cell growth or viability, MTT; 48 h).
`CCOC(=O)C(NC(=O)CN1C(=O)/C(=C/c2ccc3c(c2)OCO3)SC1=S)C(C)C` (stereo not shown) has a CC50 of 98.6 µM (cell growth or viability, resazurin; 72 h).
`O=C(C=CC(Cc1ccccc1)Nc1ccnc2cc(Cl)ccc12)NCCN1CCCCC1` (stereo not shown) has a CC50 of 39 µM (cell growth or viability, MTT; 48 h).
The CC50 of `O=C1C(O)=C(I)C(=O)c2ccccc21` is reported as over 100 µM (cell growth or viability).
With `O=C(C=CC(Cc1ccccc1)Nc1ccnc2cc(Cl)ccc12)NCC(=O)N1CCNCC1` (stereo not shown) the CC50 was 144 µM (cell growth or viability, MTT; 48 h).
`COc1ccc(-n2nc3c(=O)n(Cc4cccc(NC(C)=O)c4)nc(C)c3c2C)cc1` has a CC50 of 245 µM (cell growth or viability).
With `CCOC(=O)CNC(=O)CN1C(=O)S/C(=C\c2ccc(C)cc2)C1=O` the CC50 was over 100 µM (cell growth or viability, resazurin; 72 h).
With `CCCCCCCCC1=C(CCCCCCCC(=O)O)C1` the CC50 was 215 ± 15.8 µM (MTS; 24 h, 2% FBS).
`O=c1nc(N2CCC(Oc3ccccc3C(F)(F)F)CC2)sc2c([N+](=O)[O-])cc(C(F)(F)F)cc12` has a CC50 of over 10 µM (cell growth or viability).
